Experimental data of several laboratories.
A part holds a random share of what one study measured.

Study 1
Target: Sal-like protein 4, full length isoform A (SALL4, Homo sapiens, UniProt Q9UJQ4, residues 1-1053)
Sequence of UniProt Q9UJQ4 (whole entry, looked up): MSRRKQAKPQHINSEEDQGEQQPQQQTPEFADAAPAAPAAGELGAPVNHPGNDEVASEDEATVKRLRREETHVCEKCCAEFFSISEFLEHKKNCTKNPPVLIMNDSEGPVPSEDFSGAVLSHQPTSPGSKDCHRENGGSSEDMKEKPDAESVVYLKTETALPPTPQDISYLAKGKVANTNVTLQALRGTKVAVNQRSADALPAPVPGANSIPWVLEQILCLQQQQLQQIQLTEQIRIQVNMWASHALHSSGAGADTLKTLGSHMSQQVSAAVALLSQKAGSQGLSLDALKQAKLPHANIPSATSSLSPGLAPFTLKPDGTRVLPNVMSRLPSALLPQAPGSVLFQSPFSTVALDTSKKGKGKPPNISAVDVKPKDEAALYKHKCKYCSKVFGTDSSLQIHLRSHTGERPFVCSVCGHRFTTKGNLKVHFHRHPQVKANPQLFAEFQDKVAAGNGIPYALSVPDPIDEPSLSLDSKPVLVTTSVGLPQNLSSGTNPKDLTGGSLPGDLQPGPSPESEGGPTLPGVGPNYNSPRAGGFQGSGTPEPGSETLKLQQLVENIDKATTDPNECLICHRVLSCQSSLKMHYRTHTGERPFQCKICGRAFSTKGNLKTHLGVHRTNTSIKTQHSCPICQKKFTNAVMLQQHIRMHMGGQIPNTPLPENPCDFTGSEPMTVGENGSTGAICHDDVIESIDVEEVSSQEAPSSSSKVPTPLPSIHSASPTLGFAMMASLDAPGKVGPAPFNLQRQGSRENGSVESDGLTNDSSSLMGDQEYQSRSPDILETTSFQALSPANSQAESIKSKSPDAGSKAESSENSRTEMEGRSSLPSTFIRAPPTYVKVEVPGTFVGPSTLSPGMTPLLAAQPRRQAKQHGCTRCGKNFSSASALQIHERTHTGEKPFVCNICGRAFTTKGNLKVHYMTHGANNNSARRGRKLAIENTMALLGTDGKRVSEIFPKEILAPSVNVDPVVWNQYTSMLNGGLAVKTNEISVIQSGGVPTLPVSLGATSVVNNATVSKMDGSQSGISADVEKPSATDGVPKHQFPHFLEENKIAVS
Technique: universal PBM
Molecule type: double-stranded DNA, one strand shown
Sample: in vitro
Concentration: 600 nM
Setting: 8-mer, flanks averaged, mean of replicates
Direction: higher = stronger binding
With `AGTCTTTG` the E-score was 0.128.
`ACTCTTAA` has an E-score of 0.155.
With `CTTTAATA` the E-score was 0.374.
The E-score of `AGCCCGAG` is reported as -0.256.
`CTTTGACC` has an E-score of 0.072.

Study 2
Target: Histone acetyltransferase KAT6A, winged helix 2, GST fusion (KAT6A, Homo sapiens, UniProt Q92794, residues 85-181)
Technique: protein binding microarray
Molecule type: double-stranded DNA, one strand shown
Sample: in vitro
Concentration: not given
Setting: 8-mer, flanks averaged, mean of 2 arrays, mostly near background
Reference: not given
Direction: higher = stronger binding
Target sequence (chain): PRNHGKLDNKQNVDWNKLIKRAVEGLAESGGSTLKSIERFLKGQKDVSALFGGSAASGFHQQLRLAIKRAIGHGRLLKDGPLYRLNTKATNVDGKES
For `GAGCTGGA`, the E-score was 0.0359.
`GCATCGTA` has an E-score of 0.093.
With `GAAGGGAA` the E-score was 0.00607.
`AACCGGAA` gave an E-score of -0.125.
With `CCCTCACA` the E-score was 0.127.

Study 3
Target: PABPC1L2, full length, GST fusion (mouse, UniProt A0ABA7IW68)
Technique: RNAcompete
Molecule type: RNA
Sample: in vitro
Concentration: 20 nM
Setting: 7-mer, probes averaged, single round
Reference: mean of 7-mers
Direction: higher = stronger binding
Construct (chain): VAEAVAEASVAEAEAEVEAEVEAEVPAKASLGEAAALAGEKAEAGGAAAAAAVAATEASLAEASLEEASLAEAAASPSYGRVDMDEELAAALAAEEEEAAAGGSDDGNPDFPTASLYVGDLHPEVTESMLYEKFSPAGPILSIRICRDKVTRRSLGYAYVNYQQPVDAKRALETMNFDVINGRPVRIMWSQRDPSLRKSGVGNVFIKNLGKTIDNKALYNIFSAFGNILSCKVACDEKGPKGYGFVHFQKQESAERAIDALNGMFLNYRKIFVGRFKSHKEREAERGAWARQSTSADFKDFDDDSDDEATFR
`AUACUGU` has a 7-mer Z-score of -0.235.
For `AGACUUU`, the 7-mer Z-score was -0.309.
`GUUCAUG` gave a 7-mer Z-score of -0.162.
The 7-mer Z-score of `GACCGCG` is reported as -0.146.

Other studies, line by line
`PhoQ, residues 284 288 289 292 302 303 SSTLLI` has a fold induction of 12.3 (PhoP, residues 12 14 15 18 19 VHSCL (Escherichia coli, UniProt P23836); Sort-seq, measured: YFP reporter; E. coli; PhoQ-PhoP variant library, added: 10 µM Mg2+; reference: high Mg2+ state, higher = stronger signaling).
